Measured values collected from several papers.
Compare with care: the assays were run in different laboratories. ± marks the error that the study gave.

Cc1ccc(OCC(=O)N(Cc2cccs2)c2ccn[nH]2)cc1  total corpora lutea count (Crl:CD(SD) rat, bred female; oral, 125 mg/kg/day, total per group, developmental toxicity): 433
CCCCC[C@@H]1NC(=O)[C@@H](C)N(C)C(=O)[C@H](CCCCC)OC(=O)[C@@H](C)N(C)C(=O)[C@H](CCCCC)OC(=O)[C@@H](C)N(C)C(=O)[C@H](CCCCC)OC(=O)[C@@H](C)N(C)C1=O  Papp A→B (Caco-2; 10 µM): 0.978 ×10⁻⁶ cm/s
CSCC[C@@H]1NC(=O)[C@@H]2CSSC[C@H](NC(=O)[C@H](CO)NC(=O)[C@H](C)N)C(=O)N[C@@H](CCCNC(=N)N)C(=O)N[C@@H]([C@@H](C)O)C(=O)N3CCC[C@H]3C(=O)N[C@@H](CCCCN)C(=O)N[C@@H](CC(=O)O)C(=O)N[C@H]3CSSC[C@H](NC(=O)[C@H](CCCCN)NC(=O)[C@H](CCCNC(=N)N)NC(=O)[C@H](CC(N)=O)NC1=O)C(=O)N[C@@H](CCCCN)C(=O)N[C@H]1CSSC[C@H](NC(=O)[C@@H]4CCCN4C(=O)[C@H](CC(=O)O)NC(=O)[C@H](C)NC3=O)C(=O)N[C@@H](C)C(=O)N[C@@H](CCCCN)C(=O)N[C@@H](CCC(=O)O)C(=O)N[C@@H]([C@@H](C)O)C(=O)NCC(=O)N[C@@H](CSSC[C@@H](C(N)=O)NC(=O)[C@H](CCCNC(=N)N)NC(=O)[C@H](CC(N)=O)NC1=O)C(=O)N1CCC[C@H]1C(=O)N[C@@H](Cc1ccc(O)cc1)C(=O)NCC(=O)N[C@@H](CCCCN)C(=O)N2  Cholesterol (DA rat pristane-induced arthritis, serum; subcutaneous, 0.1 mg/kg once weekly, 21 days): 76 mg/dL
C[S]1CC[S]2CC[P](CO)(CO)[99Tc+]12.[C-]#[O+].[C-]#[O+].[C-]#[O+]  uptake in blood (CF-1 mouse; intravenous, 24 h): 0 %ID
CCCCCCCCCCCCC(=O)O.O=C1CCCC2C3CCCN4CCCC(CN12)C34 (centres unmarked)  standard Gibbs energy of aggregation (electrical conductivity; water; 298.15 K): -35 kJ/mol
O=C(CN1CCN(c2cc3c(cc2F)c(=O)c(C(=O)O)cn3C2CC2)CC1)Nc1ccc(Cl)cc1  C0 (mouse, plasma; intravenous, 3.75 mg/kg): 12 µg/mL
CCCCCCCC(=O)OC[C@H](NC(=O)[C@H](CO)NC(=O)CN)C(=O)N[C@@H](Cc1ccccc1)C(=O)N[C@@H](CC(C)C)C(=O)N[C@@H](CO)C(=O)N1CCC[C@H]1C(=O)N[C@@H](CCC(=O)O)C(=O)N[C@@H](Cc1cnc[nH]1)C(=O)N[C@@H](CCC(N)=O)C(=O)N[C@@H](CCCNC(=N)N)C(=O)N[C@H](C(=O)N[C@@H](CCC(N)=O)C(=O)N[C@@H](CCC(N)=O)C(=O)N[C@@H](CCCNC(=N)N)C(=O)N[C@@H](CCCCN)C(=O)N[C@@H](CCC(=O)O)C(=O)N[C@@H](CO)C(=O)N[C@@H](CCCCN)C(=O)N[C@@H](CCCCN)C(=O)N1CCC[C@H]1C(=O)N1CCC[C@H]1C(=O)N[C@@H](C)C(=O)N[C@@H](CCCCN)C(=O)N[C@@H](CC(C)C)C(=O)N[C@@H](CCC(N)=O)C(=O)N1CCC[C@H]1C(=O)N[C@@H](CCCNC(=N)N)C(=O)O)C(C)C  clearance (ELISA; healthy humans, plasma; intravenous infusion, 1 µg/kg/h, 210 min): 5.4 ± 2.8 mL/min/kg
CCc1c2c(nc3ccc(OC4OC(C(=O)O)C(O)C(O)C4O)cc13)-c1cc3c(c(=O)n1C2)COC(=O)C3(O)CC (centres unmarked)  Tmax (human patients, plasma; intravenous, 133 mg/m^2 of parent drug): 7.02 h
CC(C)C[C@H](NC(=O)[C@H](Cc1ccccc1)NC(=O)CNC(=O)C/C=C(\F)[C@@H](N)Cc1ccc(O)cc1)C(=O)O  brain concentration (BALB/c mice, brain; intravenous, 50 mg/kg): 60 to 140 ng/mL
COc1ccc(C)cc1NC(=O)OC1CC2CCCC(C1)N2Cc1ccc(CC[18F])cc1 (centres unmarked)  tumour uptake (BALB/c mice EMT6 tumour, tumour; 2 h): 4.08 ± 0.66 %ID/g
CC(C)[C@@H]1NC(=O)[C@H](Cc2ccccc2)NC(=O)[C@H](Cc2ccc(O)cc2)NC(=O)CCSSC[C@@H](C(=O)N2CCC[C@H]2C(=O)N[C@H](CCCNC(=N)N)C(=O)NCC(N)=O)NC(=O)[C@H](CCC(N)=O)NC1=O  glucose (Wistar rat, blood; intravenous, 10 µg/kg single dose, 72 h): 221 ± 19.7 mg/dL
COC(=O)C[C@](O)(CCCC(C)(C)OC(C)=O)C(=O)O[C@@H]1C(OC)=C[C@]23CCCN2CCc2cc4c(cc2[C@H]13)OCO4  tissue concentration (CD1 mouse, stomach; subcutaneous, 1 mg/kg, 0.5 h): 297 ng/mL
CC(=CCC(O)C(C)=Cc1csc(C)n1)CC=CC(C)C(O)C(C)C(=O)C(C)(C)C(O)CC(=O)O (centres unmarked)  Tmax (human, plasma; intravenous infusion, 20.0 mg/m2 KOS-1584, 3 h infusion, cycle 1): 3.05 ± 0.08 h
CC1(C)C(=O)N(c2ccc(C#N)c(C(F)(F)F)c2)C(=S)N1c1ccc(C(=O)O)c(F)c1  Tmax (median) (human, male, plasma; oral, 160 mg, single dose, after high-fat meal): 48 h
CC[C@H](C)C(=O)N1CCC(NC(=O)Nc2ccc(OC(F)(F)F)c(F)c2)CC1  subjects with limb injury TEAE (healthy volunteers; oral, 2 mg single dose): 0%
CC(=O)[CH](C(C)=O)[Pt-2]1([S+](C)C)[O]C(C)=CC(C)=[O+]1 (centres unmarked)  urine volume (nude BALB/c mice; iv, dose not given): 0.85 ± 0.1 mL/24 h
CCCC[C@H](NC(=O)[C@H](Cc1c[nH]c2ccccc12)NC(=O)CNC(=O)[C@H](Cc1ccc(O)cc1)NC(=O)[C@H](C)NC(=O)[C@H](CCC(=O)O)NC(=O)[C@H](Cc1c[nH]cn1)NC(=O)[C@H](Cc1c[nH]cn1)NC(=O)CN1CCN(CC(=O)O)CCN(CC(=O)O)CCN(CC(=O)O)CC1)C(=O)N[C@@H](CC(=O)O)C(=O)N[C@@H](Cc1ccccc1)C(N)=O  tumour-to-kidney ratio (MF1 nude mouse, male, CA20948 xenograft; intravenous, 0.2 µg, 4 h, 111In-labelled; reference: tumour over kidney): 0.31
C/C=C/C=C/C/C=C/CCCCCCCc1cccc(O)c1O  AUC (male Wistar rat, plasma; intravenous, 20 mg/kg): 25800 ng·h/mL
CC(C)[C@H](NC(=O)CNC(=O)[C@H](CCC(N)=O)NC(=O)[C@H](C)N)C(=O)O  subjects with adverse events (serious adverse event; human; 30 mg/kg, 3 days, thrice daily dosing): 0%
CC[C@@H]1C[C@]1(NC(=O)[C@@H]1C[C@@]2(CN1C(=O)[C@@H](NC(=O)[C@@H](NC(=O)[C@@H]1CCCCN1C(C)C)C1CCCCC1)C(C)(C)C)C(C)(C)C21CCC1)C(=O)NS(=O)(=O)N1CCCC1  subjects with adverse event (refers to: nausea; human fasted; oral, 100 mg single dose): 0%
CSCC[C@H](NC(=O)CNC(=O)[C@H](CC(=O)O)NC(=O)[C@@H](NC(=O)[C@@H](NC(=O)[C@@H](NC(=O)CNC(=O)[C@H](CCC(N)=O)NC(=O)[C@H](CCSC)NC(=O)[C@H](CC(=O)O)NC(=O)[C@H](C)NC(=O)[C@H](C)NC(=O)[C@@H](NC(=O)[C@H](CO)NC(=O)[C@@H](N)CC(C)C)[C@@H](C)O)C(C)C)C(C)C)[C@@H](C)O)C(=O)N[C@@H](C)C(=O)N[C@@H](CO)C(=O)NCC(=O)N[C@@H](CC(C)C)C(=O)N[C@@H](CC(=O)O)C(=O)N[C@@H](CCCCN)C(=O)N[C@@H](CC(=O)O)C(=O)N[C@@H](Cc1ccc(O)cc1)C(=O)N[C@@H](CC(C)C)C(=O)N[C@@H](CCCCN)C(=O)N1CCC[C@H]1C(=O)N[C@@H](CC(=O)O)C(=O)N[C@@H](CC(=O)O)C(=O)O  Vd (human, serum; intravenous, 1.66 mg/kg, patients, infusion): 0.27 L/kg
CN[C@](C)(C[18F])C(=O)O  tissue uptake (SCID mouse DU-145 xenograft, brain; 15 min, post injection): 0.3 ± 0.03 %ID/g
CN(C)C(CNC(=O)Nc1cc(C(F)(F)F)ccc1N1CCOCC1)c1ccncc1 (centres unmarked)  serum AST (mouse, serum; intraperitoneal, 360 mg/kg single dose): 1740 U/L
CC(=O)[O-].CN1CCCN2CCN(C)CCCN(CC1)CC2.F[P-](F)(F)(F)(F)F.[Co+2]  irreversible oxidation potential (cyclic voltammetry; acetonitrile; reference: SHE): 1.42 V
CC[C@H](C)[C@H](NC(=O)[C@H](CCCCN)NC(=O)[C@H](CCCCN)NC(=O)[C@H](Cc1ccccc1)NC(=O)[C@H](CC(C)C)NC(=O)[C@@H](CCCCN)NC(=O)[C@H](Cc1c[nH]c2ccccc12)NC(=O)[C@H](CCCCN)NC(C)=O)C(=O)NCC(=O)N[C@@H](C)C(=O)N[C@H](C(=O)N[C@@H](CC(C)C)C(=O)N[C@@H](CCCCN)C(=O)N[C@H](CCCCN)C(=O)N[C@@H](CC(C)C)C(N)=O)C(C)C  helical content (circular dichroism; PE:PG:CL liposomes; 60 µM, lipid to peptide ratio 1; reference: reference peptide): ~69%
CC[C@H](C)[C@H](NC(=O)[C@H](CCCCN)NC(=O)CNC(=O)[C@H](CC(C)C)NC(=O)[C@@H](NC(=O)[C@H](C)NC(=O)[C@H](CCCCN)NC(=O)CNC(=O)[C@H](C)NC(=O)CNC(=O)[C@H](CCCCN)NC(=O)[C@H](CCSC)NC(=O)[C@H](CCCCN)NC(=O)[C@@H](NC(=O)[C@H](Cc1c[nH]c2ccccc12)NC(=O)[C@H](CC(C)C)NC(=O)[C@H](CCC(=O)O)NC(=O)[C@H](CCCCN)NC(=O)[C@H](CC(C)C)NC(=O)[C@@H](N)CC(C)C)[C@@H](C)O)C(C)C)C(=O)N[C@@H](CCCCN)C(=O)NCC(=O)N[C@@H](CC(C)C)C(=O)N[C@@H](CC(C)C)C(=O)O  Stern-Volmer constant (acrylamide quenching; PC:cholesterol vesicles, 250 µM lipid; 2 µM, together with: acrylamide): 3.18 ± 1.27 M⁻¹
CC(C)C[C@@H]1NC(=O)[C@H](CCCNC(=N)N)NC(=O)[C@H](CCCCN)NC(=O)[C@H](CC(=O)O)NC(=O)[C@H](CCCCN)NC(=O)[C@@H](CO)NC1=O  acute and chronic toxicity (C57BL/6J mice; ip, up to 10 µg/g, four weeks, single and repeated doses): not toxic
CC[C@H](C)[C@@H]1NC(=O)[C@H](C(C)C)NC(=O)[C@H](C(C)C)NC(=O)[C@H](CC(C)C)NC(=O)C[C@@H](C(=O)N[C@@H](Cc2c[nH]c3ccccc23)C(=O)N[C@@H](CC(N)=O)C(=O)N[C@@H](C)C(=O)N2CCC[C@H]2C(=O)NCC(=O)N[C@@H](Cc2c[nH]c3ccccc23)C(=O)N[C@@H](Cc2ccccc2)C(=O)O)NC(=O)[C@H](C)NC(=O)[C@H](CCC(N)=O)NC(=O)[C@H](C(C)C)NC1=O  thermal stability (HPLC; 3 h, 95 °C): stable
O=P1(NCCCl)NCCCO1 (centres unmarked)  AUC(0-t) (rat, plasma; intravenous, 10 mg/kg, together with: ketoconazole 40 mg/kg oral 50 min before): 416 ± 88.9 ng·h/mL
